Experimental data of several laboratories.
Numbered parts are unrelated; each lists some results of a single study. Substitutions count along the parent as printed.

Series 1
Target: Myc proto-oncogene protein, bHLH-zipper, MAX partner unstated (MYC, Homo sapiens, UniProt P01106, residues 368-449)
Chain of UniProt P01106 (368-449, looked up): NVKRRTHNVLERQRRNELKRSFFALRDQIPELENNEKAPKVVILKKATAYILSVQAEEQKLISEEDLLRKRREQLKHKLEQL
Method: protein-binding microarray
Molecule type: double-stranded DNA, one strand shown
Medium: in vitro
Concentration: not given
Setting: k-mer, scored over probes, only values ≥0.25
Reading: higher = stronger binding
Endpoint: E-score
CGTGCGAC: 0.32
ATGAGCAC: 0.33
ACGCGCCA: 0.301
ACACGTTA: 0.373
ACTGCATG: 0.36
CATGCGCC: 0.442
CCACCGCG: 0.278
GTGTGAAC: 0.259
AGAACATG: 0.293
CGCACGCC: 0.371
ACGTGGCA: 0.448
GTGGCACA: 0.295
ACACGCGT: 0.461
ACGTGCAG: 0.431
CGTGCACG: 0.434
CCATGTGA: 0.451
AAGCGCAT: 0.255
GGAACGCA: 0.293
ATACCACG: 0.393
GCACGTGC: 0.495
GGCATGCA: 0.361
ATCCACAT: 0.357
CATGCGAG: 0.361
AAGCACGT: 0.431
ACATGTAC: 0.324

Series 2
Target: Histone acetyltransferase KAT6A, both winged helices, GST fusion (KAT6A, Homo sapiens, UniProt Q92794, residues 1-181)
Method: protein binding microarray
Molecule type: double-stranded DNA, one strand shown
Medium: in vitro
Concentration: not given
Setting: 8-mer, flanks averaged, mean of 2 arrays, mostly near background
Relative to: not given
Reading: higher = stronger binding
Endpoint: E-score
Residues (chain): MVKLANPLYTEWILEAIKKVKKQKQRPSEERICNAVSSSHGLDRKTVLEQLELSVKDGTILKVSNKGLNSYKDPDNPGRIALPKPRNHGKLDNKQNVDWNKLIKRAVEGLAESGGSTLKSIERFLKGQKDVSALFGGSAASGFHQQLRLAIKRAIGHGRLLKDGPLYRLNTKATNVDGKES
GCCGGGAC: 0.208
CGGATGAC: 0.163
CGGAGAAC: 0.169
CGGACACG: 0.266
AATATAGC: -0.0704
CGCGTAAA: 0.292
CGACCCCG: 0.277
ACAAGGTG: -0.0358
AGAAATAG: -0.22
AACTTGAA: -0.125
CATTTCCA: -0.133
AAGGCACA: -0.216
GTGCGTGA: 0.15
GATATTGC: -0.0381
CTCAACTC: -0.253
ATAATGAC: 0.064
AGCCGGGA: 0.148
AGTCAAAG: -0.144
CGAGGACG: 0.0911

Series 3
Target: RNA binding protein fox-1 homolog 2, RRM domain, GST-SBP tag (RBFOX2, Homo sapiens, UniProt O43251-10, residues 100-194)
Method: RNA Bind-n-Seq
Molecule type: RNA
Medium: in vitro
Concentration: 365 nM
Setting: natural RNA segment, single round, ends assumed
Relative to: no-protein control
Reading: higher = stronger binding
Endpoint: RBNS enrichment (R)
Construct (chain): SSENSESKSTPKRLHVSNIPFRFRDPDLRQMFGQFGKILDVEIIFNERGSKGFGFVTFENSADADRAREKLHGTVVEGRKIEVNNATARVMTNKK
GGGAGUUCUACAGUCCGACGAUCACACUGAUAUAGCCAAUUAGAUUUAAAAUGUCUUCAAAAAUUACUUUAUUUUAUUUAAAGCAUCUGUUUAAUGCAACUUUUAAUCAGAUUUUGCAAAGGGUAUGUAUGUAUGGAAUUCUCGGGUGCCAA: 1.43
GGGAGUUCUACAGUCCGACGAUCGGGUGGGGGUCAUUCAGCUCGAAUGGGUCCCAGAUGCUCACUUGGCCUUUCCCUGCAGGAUGAGUGAAGACGUUUGCCUCUCACAGUGUGUCUUCUACCUGCAUUUUGGCUGGAAUUCUCGGGUGCCAA: 0.316
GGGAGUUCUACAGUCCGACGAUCAUUAUAUAUAAGGAAAAUAACAAAUCGGUGUUUUUAAGACUAUCACUGUCAUAUAUUAGAUCCUUGUAUUAGUCCAUCCAUUAAUAUUAGUUCUAUUCGUGGUGCUAGGUUGGAAUUCUCGGGUGCCAA: 0.296
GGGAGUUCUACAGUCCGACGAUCUGCCCUCCUCCCAUCUGCCUUGAGAUUCCCUCGUCUUCACUUAAAAGCCAGAGUGCAAGUCAUGAUUUGCGGGAGGGCUCUUGAACCACUUCUGGCUGCACCACAAUUCUUGGAAUUCUCGGGUGCCAA: 0.529
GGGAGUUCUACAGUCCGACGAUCGCCGAUCCCGAUCCCUGUCGGGCUCCUCCGACUCCUCGGGCUGGACACCGAAACCUCCCUUCUUAAAGCGUGUGAGGUUGGGUGAUAGCCGUUCCUUCCCCGACACCCUCUGGAAUUCUCGGGUGCCAA: 0.4
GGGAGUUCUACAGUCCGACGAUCCCCUGCAGCUAUGAAAGCAGUCACCAGCUAAUUGUGGAAAAGUAUCAGGAGAUUCAAAUUCUUGGCUGUUUCAGAACUCUUGAGCUCAGUCAGGCAGGGAUGUUUUUAAAUGGAAUUCUCGGGUGCCAA: 0.337
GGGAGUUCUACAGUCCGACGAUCUUGGACUGUUGCUUCUUUGCCUGUUCCUGCUUUCUCUUUCUGUCUGGAUAGUCAGGAAAAGAUUUAAUGUUUAAUAUUUAAACAAAAUAUUUAAUGUCUAUACAGUAAAAUGGAAUUCUCGGGUGCCAA: 0.571
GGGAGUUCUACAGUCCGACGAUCCCAAGUGGAGCAGAGGUGGACAUGGGGUUGGAUUGUUUUGAUUAUUUAUAGUUACACAAGGACUUCUCCCAGCUGACCCUCAGGAUGCCCCAAGUCAGGAAGACCAUUAAUGGAAUUCUCGGGUGCCAA: 0.381
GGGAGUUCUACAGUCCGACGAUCCGUAAAAGCCAUGAAUGCUGGAAUCCAAAACUGACGAGGUUUAUUUUUUUCAGAGCCAGUGGCUGGUCUUCCAUUUACAGUGUCACUAUUCCCUGACGGAGCUGUUAUGUUGGAAUUCUCGGGUGCCAA: 0.239
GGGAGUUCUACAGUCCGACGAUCGGCACAUGCUCGGUUUGGCCAGUAGAAUUUGUAUUUAUGCUUUUUUUUUCCCCAAAAGUAUUUUAAUUUCUCUACCAAAGGGGGAAAAGAAAGCAGGCUGAGGUUAUUAUUGGAAUUCUCGGGUGCCAA: 0.601
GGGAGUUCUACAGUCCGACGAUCAUGUAUUUGUUUAUCGACACACUCACCCUUUCUGAGAUAGCAUUUUGCUCCCUUGAUCCCCCCCUUUUUUUGUCCCUUCGAAGAGUAAAUGCUUUGUAUUUCUUUCUUUAUGGAAUUCUCGGGUGCCAA: 0.702
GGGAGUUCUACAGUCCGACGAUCCAGCUGUGUGUUGUGCCCAAAAAUUUGGUUACCGGAAGGCAUUGCAAAGGAGCGUCUCUGGCAGUCAAGAUAAAAAAACAGUUUCUAUUGUAUUUUGUGGAACUGUAUCUUGGAAUUCUCGGGUGCCAA: 0.348

Series 4
Target: DBP, bZIP domain (human)
Method: DHFR protein complementation
Medium: yeast
Setting: single substitutions, most at no-binding floor
Relative to: wild-type JUN-FOS pair
Reading: higher = stronger binding
Endpoint: binding fitness
Starting sequence: JUN, bZIP domain (human); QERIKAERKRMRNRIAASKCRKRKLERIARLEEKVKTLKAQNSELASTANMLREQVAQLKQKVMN; partner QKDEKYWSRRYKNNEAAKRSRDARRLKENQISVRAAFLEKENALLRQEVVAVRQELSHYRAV
I28D: -1.1 natural log
L31P: -1.49 natural log
K36T: -1.52 natural log
T48R: -1.49 natural log
K39M: -1.47 natural log
I28V: -1.49 natural log
T37W: -1.25 natural log
R30S: -1.28 natural log
L45A: -1.57 natural log
A49S: -1.4 natural log
L31M: -1.64 natural log
L31I: -1.14 natural log
L31C: -1.38 natural log
R53Q: -1.48 natural log
L45Y: -1.41 natural log
N42A: -1.5 natural log
M51D: -1.48 natural log

Series 5
Target: Centromere-binding protein 1, full length, N-terminal tag (CBF1, Saccharomyces cerevisiae, UniProt P17106, residues 1-351)
Chain of UniProt P17106 (whole entry, looked up): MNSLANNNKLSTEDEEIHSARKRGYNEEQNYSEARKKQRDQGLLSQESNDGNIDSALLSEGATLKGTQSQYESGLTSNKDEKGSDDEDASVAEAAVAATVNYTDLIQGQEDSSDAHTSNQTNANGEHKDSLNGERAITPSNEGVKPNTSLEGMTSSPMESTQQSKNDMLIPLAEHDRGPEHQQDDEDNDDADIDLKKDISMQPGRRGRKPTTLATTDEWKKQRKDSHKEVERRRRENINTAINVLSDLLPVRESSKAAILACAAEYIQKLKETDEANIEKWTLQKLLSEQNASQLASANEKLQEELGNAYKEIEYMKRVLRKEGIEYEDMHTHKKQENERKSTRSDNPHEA
Method: protein-binding microarray
Molecule type: double-stranded DNA, one strand shown
Medium: in vitro
Concentration: 0.8 µM
Setting: whole 60-bp probe, no competitor
Reading: higher = stronger binding
Endpoint: fluorescence intensity
CTATAAGCATCGCACCACCTACAATACCCACGGTTCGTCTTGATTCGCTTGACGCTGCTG: 531 a.u.
GAAAGTACCTTTCAGGTGGTTAGAGTGCGATCCTAGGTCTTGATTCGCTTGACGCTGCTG: 543 a.u.
GAATATTTAAGGTGTCACGGTGATTGCAAGATGTAGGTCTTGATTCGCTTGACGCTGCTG: 778 a.u.
CTACAGTAATCGAGTCATGTGTACTTTAAAGTTTTCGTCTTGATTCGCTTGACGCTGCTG: 1840 a.u.
CTAGAAATTTTACGTGACACCATCATTTTACTTTTCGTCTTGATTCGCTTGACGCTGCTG: 562 a.u.
GAAACCTGTTGACATGCCGTGGCAAATGATTGGTAGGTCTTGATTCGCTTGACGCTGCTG: 487 a.u.
CTACCTTGCATACACGTGAATATGTCTATTTTATTCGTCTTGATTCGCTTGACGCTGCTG: 2710 a.u.
TGTACGAAGCTATCTCATGTCACTATAGTAGTTAGGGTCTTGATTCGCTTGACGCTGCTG: 567 a.u.
CTACGTCTATGATGACGTGTTCACATTATCAAATTCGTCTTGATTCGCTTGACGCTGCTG: 595 a.u.
TGTACGAAGCTATATCATGACGCTATAGTAGTTAGGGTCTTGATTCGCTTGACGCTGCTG: 522 a.u.
CTAGTTCTATGCGAAAACGTGCTAATTTAATATTTCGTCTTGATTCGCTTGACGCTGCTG: 1150 a.u.
GAAAGAAGACCGTCGCTGGTGGTGCTTACACTGTAGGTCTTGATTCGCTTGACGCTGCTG: 496 a.u.
CTATCTGATATTAATCACATGTATATCTCAATTTTCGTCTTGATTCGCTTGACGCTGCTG: 2240 a.u.
GAAATCGCTTCGGGATTCGTGATCATCTGGCTATAGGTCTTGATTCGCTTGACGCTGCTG: 726 a.u.
CTATGTGCAAGACAACAGCTGACAAGATGATGGTTCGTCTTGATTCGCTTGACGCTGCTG: 657 a.u.
GAAGGGTAAGCACCGCACATGCCAAAGACCCTATAGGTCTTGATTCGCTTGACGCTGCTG: 546 a.u.
TGTACGAAGCTATTGCACATGCTTATAGTAGTTAGGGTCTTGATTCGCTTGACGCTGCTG: 626 a.u.
CTAAACACTATAAGCGTGATGATAGAATTATTATTCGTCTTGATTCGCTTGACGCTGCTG: 593 a.u.
CTAGAAAATAATAGAGCCGTGATTTTAATTTCATTCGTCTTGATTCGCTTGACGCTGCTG: 625 a.u.
GAAAGGCGGTTTAATTACGTGAAAAAATCCTACTAGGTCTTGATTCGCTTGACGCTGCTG: 543 a.u.
GAACGCTAACATTAACAGCTGATGACTTGAAGTTAGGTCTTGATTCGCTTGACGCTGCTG: 645 a.u.
GAAGTAAAATAGGTAGACACCACGTATTGGCGATAGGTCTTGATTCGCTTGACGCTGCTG: 540 a.u.

Series 6
Target: Sal-like protein 4, full length isoform B (SALL4, Homo sapiens, UniProt Q9UJQ4-2, residues 1-616)
Method: universal PBM
Molecule type: double-stranded DNA, one strand shown
Medium: in vitro
Concentration: not given
Setting: 8-mer, flanks averaged, mean of replicates
Reading: higher = stronger binding
Endpoint: E-score
Residues (chain): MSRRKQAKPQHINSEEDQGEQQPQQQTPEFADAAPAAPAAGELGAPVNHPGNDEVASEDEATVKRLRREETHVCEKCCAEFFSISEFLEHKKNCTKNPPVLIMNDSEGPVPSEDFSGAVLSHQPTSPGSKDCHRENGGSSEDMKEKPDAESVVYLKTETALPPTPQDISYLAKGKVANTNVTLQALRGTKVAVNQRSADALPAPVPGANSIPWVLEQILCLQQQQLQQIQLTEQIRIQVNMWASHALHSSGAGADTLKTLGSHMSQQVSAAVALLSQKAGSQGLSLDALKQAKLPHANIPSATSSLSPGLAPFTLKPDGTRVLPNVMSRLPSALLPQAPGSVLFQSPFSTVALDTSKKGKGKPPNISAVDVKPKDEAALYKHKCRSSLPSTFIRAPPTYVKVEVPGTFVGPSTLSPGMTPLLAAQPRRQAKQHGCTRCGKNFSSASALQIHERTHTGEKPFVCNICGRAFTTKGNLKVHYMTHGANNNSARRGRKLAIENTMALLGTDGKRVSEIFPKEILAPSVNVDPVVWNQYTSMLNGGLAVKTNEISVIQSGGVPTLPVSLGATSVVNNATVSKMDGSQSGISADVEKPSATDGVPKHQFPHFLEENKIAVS
GCGTGATA: 0.046
GATCTATA: 0.238
AAAAGTAA: 0.316
CTCTGGGC: -0.18
AAGATCGG: -0.158
AGTCAGCC: -0.179
ACTGGCAA: 0.127
CGGAAATC: -0.098
CCCAGGGC: -0.434
AATCCGAG: 0.0419
CCTGGTAA: -0.0648
CTCTAGAC: -0.0136
AGCTTGAT: 0.0711
AAGAGCAG: -0.0515
ATTAGGGG: 0.0675
AATAATTA: 0.435
ATTTTATA: 0.386
CTTCGTGA: -0.146
CACACGCG: -0.0294
CCGACTGC: -0.332
AGCTTCTG: -0.207
AGGTAACC: -0.104
AGTCGCTA: -0.0341

Some of these lines once more (series 6):
CTCTAGAC: -0.0136
AGCTTGAT: 0.0711
AAGAGCAG: -0.0515
ATTAGGGG: 0.0675
AATAATTA: 0.435
ATTTTATA: 0.386
CTTCGTGA: -0.146
CACACGCG: -0.0294
CCGACTGC: -0.332
